# Assay results of several laboratories.
# ± marks the error that the study gave.
Molecule,organism,assay,system,conditions,MIC
CCOC(=O)[C@@]1(CS)N[C@H](C(=O)O)C(C)(C)S1,Proteus mirabilis,broth microdilution,clinical isolate,"compound at 100 mg/L, with: meropenem",16 mg/L
CC[C@H](C)[C@H](NC(=O)[C@H](CCCNC(=N)N)NC(=O)[C@H](CCCCN)NC(=O)[C@H](CC(C)C)NC(=O)[C@H](CC(C)C)NC(=O)CN)C(=O)N[C@@H](CCCCN)C(=O)N[C@H](C(=O)N[C@@H](CC(C)C)C(=O)N[C@@H](CC(C)C)C(N)=O)[C@@H](C)O,Enterobacter aerogenes,,ATCC 13048,18 to 20 h,> 32 µM
TFFRLFNRSFTGRRRRSVQWCA,Streptococcus gordonii,broth microdilution,"peptide, ATCC 10558","24 h, 37 °C, planktonic, anaerobic",49.8 ± 16.9 mg/L
CC(C)C[C@H](NC(=O)[C@H](CCCNC(=N)N)NC(=O)[C@@H]1CCCN1C(=O)[C@H](CCCNC(=N)N)NC(=O)[C@@H]1CCCN1C(=O)[C@@H]1CCCN1C(=O)[C@H](CCCNC(=N)N)NC(=O)[C@@H]1CCCN1C(=O)[C@H](CCC(N)=O)NC(=O)[C@@H]1CCCN1C(=O)[C@H](CCCNC(=N)N)NC(=O)[C@H](Cc1ccc(O)cc1)NC(=O)[C@@H](NC(=O)[C@@H]1CCCN1C(=O)[C@H](CCCNC(=N)N)NC(=O)[C@H](CC(N)=O)NC(=O)[C@H](CC(N)=O)NC(=O)CN)C(C)C)C(=O)O,Salmonella enterica serovar Typhimurium,,"SL1344, Mueller-Hinton broth","18 h, 37 °C",0.126 ± 0.052 µM
CC(C)C[C@H](NC(=O)[C@H](Cc1ccccc1)NC(=O)[C@H](CS)NC(=O)[C@@H](N)CCCCN)C(=O)N[C@@H](CCCNC(=N)N)C(=O)N[C@@H](CCCNC(=N)N)C(=O)N[C@@H](CCCNC(=N)N)C(=O)N[C@@H](CCCNC(=N)N)C(=O)N[C@@H](CO)C(=O)N[C@@H](CCCNC(=N)N)C(=O)N[C@@H](C)C(=O)O,Micrococcus luteus,,,,6 µM
CC(C)C[C@H](NC(=O)[C@H](C)NC(=O)[C@@H](N)CO)C(=O)N[C@@H](Cc1c[nH]cn1)C(=O)N[C@@H](CC(C)C)C(=O)N[C@H](C(=O)N[C@@H](CC(C)C)C(=O)N[C@@H](CCCNC(=N)N)C(=O)N[C@@H](CC(C)C)C(=O)N[C@@H](CCCNC(=N)N)C(=O)NCC(=O)NCC(=O)O)C(C)C,Bacillus megaterium,,899,"37 °C, ≥90% viability decrease",50 µM
CCCCCCCCCCCCCC(=O)N/N=C/c1ccccc1,"Candida albicans, Aspergillus niger",fungal growth,,,57.5 µM
actinomycin Y4,Micrococcus luteus,broth microdilution,ATCC 15307,16 to 48 h,4.66 mg/L
O=C(NCc1ccc2c(c1)OCO2)c1ncc(Br)cc1F,Saccharomyces cerevisiae,microbial growth,,72 h,100 µM
O=C(/C=C/c1ccccc1)N/N=C/c1ccccc1Cl,"Candida albicans, Aspergillus niger",fungal growth,,,17.4 µM
CC(C)C[C@H](NC(=O)[C@H](CCCCN)NC(=O)[C@H](C)NC(=O)[C@H](CC(C)C)NC(=O)[C@H](CCCCN)NC(=O)[C@H](CCCCN)NC(=O)[C@H](C)NC(=O)[C@H](CC(C)C)NC(=O)[C@H](CCCCN)NC(=O)[C@H](C)NC(=O)[C@H](CC(C)C)NC(=O)[C@@H](N)CCCCN)C(=O)N[C@@H](C)C(=O)N[C@@H](CCCCN)C(N)=O,Enterobacter aerogenes,,ATCC 13048,18 to 20 h,> 32 µM
CSCC[C@H](NC(=O)[C@H](Cc1ccc(O)cc1)NC(=O)[C@H](CCCNC(=N)N)NC(=O)[C@H](CCC(N)=O)NC(=O)[C@H](CO)NC(=O)[C@H](CO)NC(=O)[C@H](CCCCN)NC(=O)[C@H](CCCCN)NC(=O)[C@H](CO)NC(=O)[C@H](CCCCN)NC(=O)[C@H](CCC(N)=O)NC(=O)[C@H](CCCCN)NC(=O)[C@H](CCCNC(=N)N)NC(=O)[C@H](CCCCN)NC(=O)[C@H](CO)NC(=O)[C@H](CCCNC(=N)N)NC(=O)[C@H](Cc1c[nH]c2ccccc12)NC(=O)[C@H](CCCCN)NC(=O)[C@@H](N)CCCNC(=N)N)C(=O)O,Micrococcus luteus,,,,4 µM
LSTFFRLFNGRRRRSVQWCA,Streptococcus gordonii,broth microdilution,"peptide, ATCC 10558","24 h, 37 °C, planktonic, anaerobic",49.8 ± 16.9 mg/L
CC(C)C[C@H](NC(=O)[C@H](C)NC(=O)[C@H](CC(C)C)NC(=O)[C@@H](NC(=O)[C@H](CC(C)C)NC(=O)[C@H](Cc1c[nH]cn1)NC(=O)[C@H](CC(C)C)NC(=O)[C@@H](NC(=O)[C@@H](N)CO)[C@@H](C)O)C(C)C)C(=O)N[C@@H](CCCNC(=N)N)C(=O)NCC(=O)NCC(=O)O,Bacillus megaterium,,899,"37 °C, ≥90% viability decrease",100 µM
CCOC(=O)[C@]1(CS)N[C@H](C(=O)O)CS1,Proteus mirabilis,broth microdilution,clinical isolate,"compound at 100 mg/L, with: meropenem",8 mg/L
STFFRLFNRSFTQGRRRRSVQWCA,Streptococcus gordonii,broth microdilution,"peptide, ATCC 10558","24 h, 37 °C, planktonic, anaerobic",49.8 ± 16.9 mg/L
C/C=C/C=C/C(=O)N/N=C/c1ccccc1Cl,"Candida albicans, Aspergillus niger",fungal growth,,,28.2 µM
CC[C@H](C)[C@H](NC(=O)[C@H](C)N)C(=O)N[C@@H](CCCCN)C(=O)N[C@H](C(=O)N[C@@H](CCCNC(=N)N)C(=O)N[C@@H](CCCCN)C(=O)N[C@@H](CC(C)C)C(=O)N[C@@H](Cc1ccccc1)C(=O)N[C@@H](CCCCN)C(=O)N[C@@H](CCCCN)C(=O)N[C@@H](CC(C)C)C(=O)N[C@@H](CC(C)C)C(=O)N[C@@H](CCCNC(=N)N)C(N)=O)[C@@H](C)CC,Escherichia coli,,ATCC 25922,"1 h, 37 °C, non-dividing cells in PBS",12.5 mg/L
Cc1ccc(C(=O)N/N=C/c2ccccc2)cc1,"Candida albicans, Aspergillus niger",fungal growth,,,24.5 µM
CC(C)[C@H](NC(=O)[C@H](CO)NC(=O)[C@H](CCCNC(=N)N)NC(=O)[C@H](CCCNC(=N)N)NC(=O)[C@H](CCCNC(=N)N)NC(=O)[C@H](CCCNC(=N)N)NC(=O)CN)C(=O)N[C@@H](CCC(N)=O)C(=O)N[C@@H](Cc1c[nH]c2ccccc12)C(=O)N[C@@H](CS)C(=O)N[C@@H](C)C(=O)O,Streptococcus sanguinis,broth microdilution,ATCC 49295,"24 h, planktonic anaerobic",139 ± 62.9 mg/L
CC[C@H](C)[C@H](NC(=O)[C@@H]1CCCN1C(=O)[C@H](CCCCN)NC(=O)[C@@H]1CCCN1C(=O)[C@@H]1CCCN1C(=O)[C@@H](NC(=O)[C@@H]1CCCN1C(=O)[C@H](CCCNC(=N)N)NC(=O)[C@@H]1CCCN1C(=O)[C@H](CCCCN)NC(=O)[C@H](Cc1ccc(O)cc1)NC(=O)[C@H](CO)NC(=O)CNC(=O)[C@H](CCCCN)NC(=O)[C@H](CC(=O)O)NC(=O)[C@@H](N)C(C)C)[C@@H](C)O)C(=O)N[C@@H](Cc1ccc(O)cc1)C(=O)N[C@@H](CC(N)=O)C(=O)N[C@@H](CCCNC(=N)N)C(=O)N[C@@H](CC(N)=O)C(=O)O,Salmonella enterica serovar Typhimurium,,"SL1344, Mueller-Hinton broth","18 h, 37 °C",0.15 ± 0.034 µM
CC(C)C[C@H](NC(=O)[C@H](CCCNC(=N)N)NC(=O)[C@H](CC(C)C)NC(=O)[C@@H](NC(=O)[C@H](C)NC(=O)[C@H](Cc1c[nH]cn1)NC(=O)[C@H](CC(C)C)NC(=O)[C@@H](NC(=O)[C@@H](N)CO)[C@@H](C)O)C(C)C)C(=O)N[C@@H](CCCNC(=N)N)C(=O)NCC(=O)NCC(=O)O,Bacillus megaterium,,899,"37 °C, ≥90% viability decrease",50 µM
TFFRLFNRGRRRRSVQWCA,Streptococcus sanguinis,broth microdilution,"peptide, ATCC 49295","24 h, 37 °C, planktonic, anaerobic",99.6 ± 33.7 mg/L
CCCCCCCCCCCCCCCCCC(=O)N/N=C/c1ccccc1Cl,"Candida albicans, Aspergillus niger",fungal growth,,,27.5 µM
magainin 2,Cutibacterium acnes,broth microdilution,ATCC 6919,"24 h, 37 °C",> 100 mg/L
CCCCCCCCCCCCCC(=O)N/N=C/c1ccccc1Cl,"Candida albicans, Aspergillus niger",fungal growth,,,75.9 µM
LSTFFRLFNRSFTQGRRRRSVQWCA,Streptococcus gordonii,broth microdilution,"peptide, ATCC 10558","24 h, 37 °C, planktonic, anaerobic",49.8 ± 16.9 mg/L
OC(Cn1cncn1)(Cn1cncn1)c1ccc(F)cc1F,"Candida albicans, Aspergillus niger",fungal growth,,,2.29 µM
CC(C)C[C@H](NC(=O)[C@H](CCCNC(=N)N)NC(=O)[C@@H]1CCCN1C(=O)[C@H](CCCNC(=N)N)NC(=O)[C@@H]1CCCN1C(=O)[C@@H]1CCCN1C(=O)[C@H](CCCNC(=N)N)NC(=O)[C@@H]1CCCN1C(=O)[C@H](CCC(N)=O)NC(=O)[C@@H]1CCCN1C(=O)[C@H](CCCCN)NC(=O)[C@H](Cc1ccc(O)cc1)NC(=O)[C@@H](NC(=O)[C@@H]1CCCN1C(=O)[C@H](CCCCN)NC(=O)[C@H](CC(N)=O)NC(=O)[C@H](CC(N)=O)NC(=O)CN)C(C)C)C(=O)O,Salmonella enterica serovar Typhimurium,,"SL1344, Mueller-Hinton broth","18 h, 37 °C",0.192 ± 0.044 µM
CC(C)C[C@H](NC(=O)[C@H](C)NC(=O)CNC(=O)[C@H](CC(C)C)NC(=O)[C@H](CC(C)C)NC(=O)[C@H](CCCCN)NC(=O)[C@H](CCCCN)NC(=O)[C@H](CC(C)C)NC(=O)[C@H](CC(C)C)NC(=O)[C@H](CCCCN)NC(=O)[C@H](CC(C)C)NC(=O)[C@H](CC(C)C)NC(=O)[C@@H](N)CCCCN)C(=O)NCC(N)=O,Klebsiella pneumoniae,,"ATCC 700603, CAMHB","18 h, 37 °C",5 µM
CC(C)C[C@H](NC(=O)[C@H](CCCNC(=N)N)NC(=O)[C@H](C)NC(=O)[C@@H](NC(=O)[C@H](CC(C)C)NC(=O)[C@H](Cc1c[nH]cn1)NC(=O)[C@H](CC(C)C)NC(=O)[C@@H](NC(=O)[C@@H](N)CO)[C@@H](C)O)C(C)C)C(=O)N[C@@H](CCCNC(=N)N)C(=O)NCC(=O)NCC(=O)O,Bacillus megaterium,,899,"37 °C, ≥90% viability decrease",50 µM
COc1cc(OC)cc(C(=O)N/N=C/c2ccccc2)c1,"Candida albicans, Aspergillus niger",fungal growth,,,15.5 µM

# Some of these lines once more:
Molecule,organism,assay,system,conditions,MIC
CCOC(=O)[C@]1(CS)N[C@H](C(=O)O)CS1,Proteus mirabilis,broth microdilution,clinical isolate,"compound at 100 mg/L, with: meropenem",8 mg/L
STFFRLFNRSFTQGRRRRSVQWCA,Streptococcus gordonii,broth microdilution,"peptide, ATCC 10558","24 h, 37 °C, planktonic, anaerobic",49.8 ± 16.9 mg/L
C/C=C/C=C/C(=O)N/N=C/c1ccccc1Cl,"Candida albicans, Aspergillus niger",fungal growth,,,28.2 µM
CC[C@H](C)[C@H](NC(=O)[C@H](C)N)C(=O)N[C@@H](CCCCN)C(=O)N[C@H](C(=O)N[C@@H](CCCNC(=N)N)C(=O)N[C@@H](CCCCN)C(=O)N[C@@H](CC(C)C)C(=O)N[C@@H](Cc1ccccc1)C(=O)N[C@@H](CCCCN)C(=O)N[C@@H](CCCCN)C(=O)N[C@@H](CC(C)C)C(=O)N[C@@H](CC(C)C)C(=O)N[C@@H](CCCNC(=N)N)C(N)=O)[C@@H](C)CC,Escherichia coli,,ATCC 25922,"1 h, 37 °C, non-dividing cells in PBS",12.5 mg/L
Cc1ccc(C(=O)N/N=C/c2ccccc2)cc1,"Candida albicans, Aspergillus niger",fungal growth,,,24.5 µM
